Published values collected from several papers.
Compare with care: the assays were run in different laboratories. Numbers after ± are the reported error.
Fibroin-modulator-binding protein-1: Fibroin-modulator-binding protein-1 99-193 (Bombyx mori, UniProt Q5FBS0)
B1: enzyme S446A (Methanosarcina mazei, UniProt Q8PVB1); chain MSEQRSVPLREHLLALKPCRHGGLIQETSETYGIPENEILDFSANFNPLGSPFDYPENGLNFEDIIKKSCGKLLEYPDNRYVEFREAAARFVGLGVTPQSIVPGNGSTEIVRLVVESVIEKGDKVLLPWPTFGEYEMQCRITGAEPVCPSQEEVNTLPDEVLEEAKILFICNPNNPTGKLRTREELKVLAERCREHKTLLYVDEAFIELSDPSQSVADLPAENNYVFVMRSLTKDFAIPGIRMGFGIAPPAMADILNTARLSWNLGAIANNTGIALLNIEGGIDSPYLKKAREMILKEGETLKAKIDRIRGFEAGEVNVNFILVDVSKFMLNSSELTARLAARGVLVRDCVSFHGLGKNYIRVAVRTEKENDRLIAAIGDVITEWGREQAKNELQHVIEKASEEGIGGRKTCEYYPCHFEGQNCTFCFCPFYPCENEKTGGKWIQASRGGRVWSCVDCHLVHKKEIAQKILDCLMHEGDTDELVKVAWKEVMEPIL
B2: enzyme (Oryza sativa, UniProt Q6ZGQ4); chain ASGPPFSCGAPSSAAFCNPRLPIEQRADDLVSRLTLEEKISQLGDQSPAVDRLGVPAYKWWSEALHGVSNAGRGIHLDGPLRAATSFPQVILTAASFNPHLWYRIGQVIGTEARAVYNNGQAEGLTFWAPNINVFRDPRWGRGQETPGEDPTVTGKYAAVFVRGVQGYALAGAINSTDLEASACCKHFTAYDLENWKGVTRYAFDAKVTAQDLADTYNPPFRSCVEDGGASGIMCSYNRVNGVPTCADYNLLSKTARGDWRFYGYITSDCDAVSIIHDVQGYAKTAEDAVADVLKAGMDVNCGSYVQEHGLSAIQQGKITEQDINRALHNLFAVRMRLGLFNGNPKYNRYGNIGPDQVCTQEHQNLALEAAQHGVVLLKNDANALPLSKSQVSSIAVIGHNANDATRLLGNYFGPPCISVTPLQVLQGYVKDTRFLAGCNSAACNVSSIGEAAQLASSVDYVVLFMGLDQDQEREEVDRLELSLPGMQENLINTVANAAKKPVILVLLCGGPVDVTFAKYNPKIGAILWAGYPGEAGGIAIAQVLFGEHNPGGRLPVTWYPKEFTSVPMTDMRMRADPSTGYPGRTYRFYRGNTVYKFGYGLSYSKYSHHFVANGTKLPSLSSIDGLKAMATAAAGTVSYDVEEIGPETCDKLKFPALVRVQNHGPMDGRHPVLLFLRWPNGAADGGRPASQLIGFQSLHLKSMQTVHVEFEVSPCKHFSRATEDGKKVIDHGSHFMMVGDDEFEMSFTP
B3: rCR (Lodderomyces parapsilosis, UniProt A1X808); chain MSIPSSQYGFVFNKQSGLKLRNDLPVHKPKAGQLLLKVDAVGLCHSDLHVIYEGLDCGDNYVMGHEIAGTVAAVGDDVINYKVGDRVACVGPNGCGGCKYCRGAIDNVCKNAFGDWFGLGYDGGYQQYLLVTRPRNLSRIPDNVSADVAAASTDAVLTPYHAIKMAQVSPTSNILLIGAGGLGGNAIQVAKAFGAKVTVLDKKKEARDQAKKLGADAVYETLPESISPGSFSACFDFVSVQATFDVCQKYVEPKGVIMPVGLGAPNLSFNLGDLALREIRILGSFWGTTNDLDDVLKLVSEGKVKPVVRSAKLKELPEYIEKLRNNAYEGRVVFNP
B4: enzyme (Rhodospirillum rubrum, UniProt Q2RSU5); chain MSDSNDDRPFRPFQSQYRWPGVDLLAYKEEGSAPFRSVTRQVLFSGNGLTGELRYFEVGPGGHSTLERHQHAHGVMILKGRGHAMVGRAVSAVAPYDLVTIPGWSWHQFRAPADEALGFLCMVNAERDKPQLPTEADLAMLRADDAVAAFLDGLAG
B5: RABE1C (Arabidopsis thaliana, UniProt P28186); chain MAAPPARARADYDYLIKLLLIGDSGVGKSCLLLRFSDGSFTTSFITTIGIDFKIRTIELDGKRIKLQIWDTAGQERFRTITTAYYRGAMGILLVYDVTDESSFNNIRNWIRNIEQHASDNVNKILVGNKADMDESKRAVPTAKGQALADEYGIKFFETSAKTNLNVEEVFFSIGRDIKQRLSDTDSRAEPATIKISQTDQAAGAGQATQKSACCGT
Chain of UniProt O31986 (whole entry, looked up): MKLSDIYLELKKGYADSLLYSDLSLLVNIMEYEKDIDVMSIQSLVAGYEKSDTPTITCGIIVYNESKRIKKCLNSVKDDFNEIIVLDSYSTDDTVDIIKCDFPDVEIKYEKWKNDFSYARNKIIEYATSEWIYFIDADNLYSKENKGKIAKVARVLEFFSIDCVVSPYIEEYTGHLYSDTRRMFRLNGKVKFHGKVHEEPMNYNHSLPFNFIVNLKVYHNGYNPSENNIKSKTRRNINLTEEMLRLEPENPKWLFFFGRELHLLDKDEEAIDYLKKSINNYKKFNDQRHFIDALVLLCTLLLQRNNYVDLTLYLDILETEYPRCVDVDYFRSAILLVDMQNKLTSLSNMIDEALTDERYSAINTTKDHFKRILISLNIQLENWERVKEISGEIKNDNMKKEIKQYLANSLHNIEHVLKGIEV
Chain of UniProt P49419 (whole entry, looked up): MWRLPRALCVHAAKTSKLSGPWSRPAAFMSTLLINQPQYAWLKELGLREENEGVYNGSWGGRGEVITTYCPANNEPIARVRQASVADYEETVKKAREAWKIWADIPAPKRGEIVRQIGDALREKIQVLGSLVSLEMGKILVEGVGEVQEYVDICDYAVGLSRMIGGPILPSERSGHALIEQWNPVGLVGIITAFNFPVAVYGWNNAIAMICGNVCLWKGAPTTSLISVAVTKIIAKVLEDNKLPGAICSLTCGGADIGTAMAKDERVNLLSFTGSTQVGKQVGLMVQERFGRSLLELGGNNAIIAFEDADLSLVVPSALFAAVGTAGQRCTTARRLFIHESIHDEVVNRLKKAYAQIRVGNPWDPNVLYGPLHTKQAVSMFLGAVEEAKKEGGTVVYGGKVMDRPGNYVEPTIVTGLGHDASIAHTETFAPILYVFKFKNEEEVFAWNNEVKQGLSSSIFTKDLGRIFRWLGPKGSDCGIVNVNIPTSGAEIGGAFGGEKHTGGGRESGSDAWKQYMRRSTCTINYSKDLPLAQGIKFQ
Chain of UniProt P00327 (whole entry, looked up): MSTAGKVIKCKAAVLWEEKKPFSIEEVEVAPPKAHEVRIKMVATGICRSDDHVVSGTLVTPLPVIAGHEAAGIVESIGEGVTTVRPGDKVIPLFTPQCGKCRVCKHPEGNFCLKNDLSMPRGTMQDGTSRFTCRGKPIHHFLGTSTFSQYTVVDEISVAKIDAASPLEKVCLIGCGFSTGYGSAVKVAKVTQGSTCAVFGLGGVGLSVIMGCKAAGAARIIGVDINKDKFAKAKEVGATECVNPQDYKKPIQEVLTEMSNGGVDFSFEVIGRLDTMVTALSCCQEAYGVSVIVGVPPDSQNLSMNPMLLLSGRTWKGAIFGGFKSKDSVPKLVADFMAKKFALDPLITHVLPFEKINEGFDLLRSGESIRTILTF
Chain of UniProt P39597 (whole entry, looked up): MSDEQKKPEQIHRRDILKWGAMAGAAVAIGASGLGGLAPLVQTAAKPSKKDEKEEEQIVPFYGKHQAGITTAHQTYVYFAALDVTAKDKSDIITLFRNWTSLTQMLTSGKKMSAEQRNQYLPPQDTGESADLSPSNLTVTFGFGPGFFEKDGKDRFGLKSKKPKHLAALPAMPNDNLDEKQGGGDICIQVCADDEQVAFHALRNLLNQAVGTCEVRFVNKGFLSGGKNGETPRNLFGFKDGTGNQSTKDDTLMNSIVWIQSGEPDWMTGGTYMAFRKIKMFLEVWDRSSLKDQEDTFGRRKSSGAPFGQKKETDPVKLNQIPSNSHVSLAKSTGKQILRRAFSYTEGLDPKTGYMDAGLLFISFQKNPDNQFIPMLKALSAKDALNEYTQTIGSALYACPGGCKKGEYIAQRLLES
Chain of UniProt P04798 (whole entry, looked up): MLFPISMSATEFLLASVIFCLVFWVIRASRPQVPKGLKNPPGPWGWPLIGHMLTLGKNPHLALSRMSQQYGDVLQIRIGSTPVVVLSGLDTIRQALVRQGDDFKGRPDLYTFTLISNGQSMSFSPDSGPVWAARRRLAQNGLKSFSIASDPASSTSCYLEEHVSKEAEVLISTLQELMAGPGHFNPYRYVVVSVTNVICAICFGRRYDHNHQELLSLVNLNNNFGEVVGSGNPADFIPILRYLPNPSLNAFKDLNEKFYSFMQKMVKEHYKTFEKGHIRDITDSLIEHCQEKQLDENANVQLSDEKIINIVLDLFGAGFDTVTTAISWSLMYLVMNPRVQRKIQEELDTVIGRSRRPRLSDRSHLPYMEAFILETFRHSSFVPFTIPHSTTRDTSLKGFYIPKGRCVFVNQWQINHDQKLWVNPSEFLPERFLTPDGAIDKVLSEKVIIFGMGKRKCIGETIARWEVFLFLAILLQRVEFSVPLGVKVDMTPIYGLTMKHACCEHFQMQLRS

With `CYP1A1 (Homo sapiens, UniProt P04798)` the Km was 0.88 µM (CC(C)=CCc1cc2c(cc1O)O[C@H](c1ccc(O)cc1)CC2=O; steady-state kinetics; pH 7.4, 37 °C).
`enzyme (Equus caballus, UniProt P00327)` has a Km of 127 µM (NC(=O)c1ccc[n+]([C@@H]2O[C@H](COP(=O)(O)OP(=O)(O)OC[C@H]3O[C@@H](n4cnc5c(N)ncnc54)[C@H](OP(=O)(O)O)[C@@H]3O)[C@@H](O)[C@H]2O)c1; steady-state kinetics; pH 7, 30 °C, cofactor varied).
For `GCACGCACGCAC (dsDNA)`, the Kd was 7.74 ± 0.886 µM (Fibroin-modulator-binding protein-1; ITC; double-stranded DNA, one strand shown).
With `TLIMWIERV` the reporter activation was 0.19% (Jurkat T cells expressing 1G4 TCR; NFAT-eGFP reporter, flow cytometry; peptide; concentration not given, HLA-A*02:01 NY-ESO system).
With `B1 (enzyme S446A)` the Km was 133 µM (Nc1ncnc2c1ncn2[C@@H]1O[C@H](COP(=O)(O)OP(=O)(O)OP(=O)(O)O)[C@@H](O)[C@H]1O; steady-state kinetics; pH 8.5, 25 °C, apparent, anoxic, with: L-Thr 10 mM).
For `ALDH7A1 (Homo sapiens, UniProt P49419)`, the Km was 129 µM (N[C@@H](CCCC=O)C(=O)O; steady-state kinetics; pH 8, apparent, with: NAD+ 2.5 mM).
The Km of `enzyme (Bacillus subtilis, UniProt O31986)` is reported as 2100 µM (O=c1ccn([C@@H]2O[C@H](COP(=O)(O)OP(=O)(O)O[C@H]3O[C@H](CO)[C@H](O)[C@H](O)[C@H]3O)[C@@H](O)[C@H]2O)c(=O)[nH]1; steady-state kinetics; pH 7.5, with: SunA).
With `KITDFGRAKL` the binding score was 2.3% (HLA class I histocompatibility antigen, A alpha chain, allele A*02:01 (Homo sapiens, UniProt P04439); conformational ELISA; peptide; concentration not given; reference: positive control peptide, direction not given).
The Km of `B2 (enzyme)` is reported as 84000 µM (O=[N+]([O-])c1ccc(O[C@@H]2OC[C@H](O)[C@H](O)[C@H]2O)cc1; steady-state kinetics; pH 4, 40 °C, apparent).
For `efeB (Bacillus subtilis, UniProt P39597)`, the Km was 40 µM (Nc1c(S(=O)(=O)O)cc(Nc2cccc(S(=O)(=O)CCOS(=O)(=O)O)c2)c2c1C(=O)c1ccccc1C2=O; steady-state kinetics; pH 4, 25 °C, apparent).
With `GGCAGGCAGGCA (dsDNA)` the Kd was 14.7 µM (Fibroin-modulator-binding protein-1; ITC; double-stranded DNA, one strand shown).
`B3 (rCR)` gave a Km of 1040 µM (O=C(CO)c1ccccc1; steady-state kinetics; pH 7, 30 °C).
With `B4 (enzyme)` the Km was 39 µM (CSCC(=O)[C@@H](O)[C@H](O)COP(=O)(O)O; steady-state kinetics; with: DTT).
For `B5 (RABE1C)`, the Km was 9690 µM (Nc1nc2c(ncn2[C@@H]2O[C@H](COP(=O)(O)OP(=O)(O)OP(=O)(O)O)[C@@H](O)[C@H]2O)c(=O)[nH]1; steady-state kinetics; pH 7.5, 30 °C).

A few entries again:
For `ALDH7A1 (Homo sapiens, UniProt P49419)`, the Km was 129 µM (N[C@@H](CCCC=O)C(=O)O; steady-state kinetics; pH 8, apparent, with: NAD+ 2.5 mM).
The Km of `enzyme (Bacillus subtilis, UniProt O31986)` is reported as 2100 µM (O=c1ccn([C@@H]2O[C@H](COP(=O)(O)OP(=O)(O)O[C@H]3O[C@H](CO)[C@H](O)[C@H](O)[C@H]3O)[C@@H](O)[C@H]2O)c(=O)[nH]1; steady-state kinetics; pH 7.5, with: SunA).
